Experimental data from different studies.
Each numbered part is a random draw from the data of one study; scales do not carry over between parts. Substitutions count along the parent as printed.

Block 1
Target: RNA binding protein fox-1 homolog 2, RRM domain, GST-SBP tag (RBFOX2, Homo sapiens, UniProt O43251-10, residues 100-194)
Method: RNA Bind-n-Seq
Form: RNA
Matrix: in vitro
Tested at: 365 nM
Setting: natural RNA segment, single round, ends assumed
Baseline: no-protein control
Direction: higher = stronger binding
Measurement: RBNS enrichment (R)
Residues (chain): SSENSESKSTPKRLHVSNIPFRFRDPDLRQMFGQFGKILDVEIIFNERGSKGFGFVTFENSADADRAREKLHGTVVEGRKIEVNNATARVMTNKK
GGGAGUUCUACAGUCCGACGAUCCCUCCGUGCCACGCACUGAAGGCCACCCCCACCCACCUGGGAAACUAAGAACUGGAUAUUUUGCCUCAUUCACUUGUACUGUAACAAUGUAUAUAAUUUGGUUGGUAUUUUGGAAUUCUCGGGUGCCAA: 0.281
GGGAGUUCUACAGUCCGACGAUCCUUCUCUAAUGUGUAAGUGGAGCCUGAACUGCAGGGGCUCUUUAUAUUCCAAACAACCCAGGGUUAGCCUUGGCCUCGAUCCUGGCCUUGGCCUCCCUAGGCUAUAUCUGUGGAAUUCUCGGGUGCCAA: 0.304
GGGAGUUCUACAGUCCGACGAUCUACUUCUAAUUUCAUUGUAUAUAGGUGGUUUUCCCUGGAAUUCAUUAAUUGUUUGCUUUGGACAUGUGGAAAGAGCCUUACUAAUAAAAUUGAUUUUGCUUAUGAAUUAAUGGAAUUCUCGGGUGCCAA: 4.71
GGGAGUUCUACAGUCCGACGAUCGCCGUCCCACCCUGCUGUGCCUGCACAGUUCCCAGUGCCUGUGCCUGCGCCUGCUGGGGACAGUGUGGCCCUGUCCCAGUAGCUUGAUGACUCAGGGUGGACCUUGCUCCUGGAAUUCUCGGGUGCCAA: 1.67
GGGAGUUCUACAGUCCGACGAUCUGAGACUGGCUGAAGUGAAGAAUCUUUGACUGACCAUGUUGUGAUGUGUCGACAGACUCAAGGACACAACCACCUCGACCUGGUCAUGUGGCAUGCCUGUGUAUGUGUGUUGGAAUUCUCGGGUGCCAA: 2.91
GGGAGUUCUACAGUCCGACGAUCUCCCUAGCAAAAUGCUAGGCCUGUAGUAGUCAAGGUGCUCAAUAAAUAUUUGUUUGGGUGGUUUGUGAGCCUUGCUGCCAAGUCCUGCCUUUGGGUCGACAUAGUAUGGAUGGAAUUCUCGGGUGCCAA: 1.5
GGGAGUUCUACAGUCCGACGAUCUCAGCGCAGUUUUGUUUUGUGUGUCCAUUGGAUUACAAACUUUAUUAAAAAAUAUAAAACACACCAAGUGUGAGUGUGAUUGUCACUUGGGUGGGAGGACGAACCAUGGGUGGAAUUCUCGGGUGCCAA: 0.504
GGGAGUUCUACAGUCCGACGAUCAAAAGCAUGGGACCCUCACAGCAACCAUUCCUGGGAGAUGGGUCCCUUAUAGGUCCAUGACCUGCUCUGUUCAGAGGCCUCUUGGCAGUGUGGCCUGUUUGUGCUGUCCUUGGAAUUCUCGGGUGCCAA: 0.349
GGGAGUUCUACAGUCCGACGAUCCUAUGCCAACAUCUCCCAUUGGAAACAGGGUUUCUCCUCCUUGCUUCAUCAGAGCCAACCUUUGAUAUUCUUGGAGGGGACAGGAGGUGGGAACACAGAGGGAGUAGCCUUGGAAUUCUCGGGUGCCAA: 0.3
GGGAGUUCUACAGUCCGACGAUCCGUUGUAUAUUUUUGGAAACGUUCUUUAGAAUACAUUUCUGCAUUAUUUGUAUGCUUCCCAGAGAAGCUCAUUUCAUUACAAAAGGCACAUUUUAAAGCCUGCUGAUAACUGGAAUUCUCGGGUGCCAA: 0.644
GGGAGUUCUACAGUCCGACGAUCUUCCACUGCAAAUGCCCAGCAGUGAAGAUGGCCUCAAAUUGGGUUCUUGCCUGCAGUGUGUGUGGCAGCAGCCCAUGUGCCUUUACCUGUUGUCAAACUUGCAAGCAUUUUGGAAUUCUCGGGUGCCAA: 0.704
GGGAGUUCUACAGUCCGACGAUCAUGUAUAGGCUGUGUUGGUUUAUGGAGACAAGUUGCAUCAAUGAAUUCACCUAGCAUAGGCUCUUUGAAAUGUCCUCUGUUUGAUAAAAAACAAUCCUGGGUACGUAUGUUGGAAUUCUCGGGUGCCAA: 1.78

Block 2
Target: CCNA1, cyclin fold, Cln2 fusion (human)
Method: yeast growth competition, sequencing
Matrix: yeast
Setting: weak parent motif
Baseline: not given
Direction: higher = stronger binding
Measurement: normalised enrichment score
Starting sequence: CDC25A docking peptide (human); PPHRRRLLFACSP; partner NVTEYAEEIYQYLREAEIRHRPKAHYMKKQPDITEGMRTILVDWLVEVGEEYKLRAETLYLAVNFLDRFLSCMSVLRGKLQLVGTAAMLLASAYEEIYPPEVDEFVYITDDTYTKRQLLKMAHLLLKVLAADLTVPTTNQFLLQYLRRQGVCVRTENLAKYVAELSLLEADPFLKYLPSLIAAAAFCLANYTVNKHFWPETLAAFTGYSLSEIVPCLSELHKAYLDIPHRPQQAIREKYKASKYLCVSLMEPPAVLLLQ
A10T: 0.355
R4W: -0.0871
C11H: 0.348
F9D: 0.0507
R5T: 0.208
L7K: 0.484
R5Q: 0.349

Block 3
Target: Histone acetyltransferase KAT6A, winged helix 2, GST fusion (KAT6A, Homo sapiens, UniProt Q92794, residues 85-181)
Method: protein binding microarray
Form: double-stranded DNA, one strand shown
Matrix: in vitro
Tested at: not given
Setting: 8-mer, flanks averaged, mean of 2 arrays, mostly near background
Baseline: not given
Direction: higher = stronger binding
Measurement: E-score
Target sequence (chain): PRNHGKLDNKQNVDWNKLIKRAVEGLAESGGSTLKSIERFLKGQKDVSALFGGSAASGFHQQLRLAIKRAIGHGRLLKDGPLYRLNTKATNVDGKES
CAAGCGCA: 0.17
TCGATGCA: -0.144
GGCTTAAC: -0.0482
CATTTGAG: 0.0598
CGGTTCTA: 0.0328
AATTTGTC: 0.105
ATAGTGGA: -0.0774
ATAGTTTG: 0.0149
GTTTGGAA: 0.0122
ACCACCGA: -0.077
ACCAGACA: 0.108
ATTGTGCG: -0.00296
AGCGCGCA: 0.193
CAGAACTC: 0.0444
TCATCACA: -0.176
CTTGCGTC: 0.104
AGCTGAGC: 0.0525

Further values, each from its own experiment
PhoQ, residues 284 288 289 292 302 303 SVTLVV — fold induction (PhoP, residues 12 14 15 18 19 AQALL (Escherichia coli, UniProt P23836); Sort-seq, refers to: YFP reporter; E. coli; PhoQ-PhoP variant library, together with: 10 µM Mg2+; baseline: high Mg2+ state, higher = stronger signaling): 14.8

A few entries again (block 1):
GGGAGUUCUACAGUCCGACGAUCAAAAGCAUGGGACCCUCACAGCAACCAUUCCUGGGAGAUGGGUCCCUUAUAGGUCCAUGACCUGCUCUGUUCAGAGGCCUCUUGGCAGUGUGGCCUGUUUGUGCUGUCCUUGGAAUUCUCGGGUGCCAA: 0.349
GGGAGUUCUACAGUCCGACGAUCUACUUCUAAUUUCAUUGUAUAUAGGUGGUUUUCCCUGGAAUUCAUUAAUUGUUUGCUUUGGACAUGUGGAAAGAGCCUUACUAAUAAAAUUGAUUUUGCUUAUGAAUUAAUGGAAUUCUCGGGUGCCAA: 4.71
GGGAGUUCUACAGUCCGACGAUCUUCCACUGCAAAUGCCCAGCAGUGAAGAUGGCCUCAAAUUGGGUUCUUGCCUGCAGUGUGUGUGGCAGCAGCCCAUGUGCCUUUACCUGUUGUCAAACUUGCAAGCAUUUUGGAAUUCUCGGGUGCCAA: 0.704
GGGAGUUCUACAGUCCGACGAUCUGAGACUGGCUGAAGUGAAGAAUCUUUGACUGACCAUGUUGUGAUGUGUCGACAGACUCAAGGACACAACCACCUCGACCUGGUCAUGUGGCAUGCCUGUGUAUGUGUGUUGGAAUUCUCGGGUGCCAA: 2.91
